Measurements of several laboratories.
Parts stem from different laboratories: compare values within a part only. Positions count from the first letter of the parent shown.

Set 1
Target: Ras GTPase-activating protein-binding protein 1, RRM domain (G3BP1, Homo sapiens, UniProt Q13283)
Sequence of UniProt Q13283 (whole entry, looked up): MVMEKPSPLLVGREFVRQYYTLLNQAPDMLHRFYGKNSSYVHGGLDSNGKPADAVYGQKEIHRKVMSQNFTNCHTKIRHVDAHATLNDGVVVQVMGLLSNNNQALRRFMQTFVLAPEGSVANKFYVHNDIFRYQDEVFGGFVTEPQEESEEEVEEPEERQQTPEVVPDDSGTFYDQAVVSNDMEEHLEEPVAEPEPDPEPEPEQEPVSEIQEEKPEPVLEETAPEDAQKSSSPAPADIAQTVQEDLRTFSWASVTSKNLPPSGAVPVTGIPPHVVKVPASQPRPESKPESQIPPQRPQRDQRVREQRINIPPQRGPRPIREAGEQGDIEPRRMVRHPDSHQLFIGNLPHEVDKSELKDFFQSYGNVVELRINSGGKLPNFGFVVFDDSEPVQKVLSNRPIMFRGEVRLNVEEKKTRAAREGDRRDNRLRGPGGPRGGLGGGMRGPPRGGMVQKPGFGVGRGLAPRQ
Method: RNA Bind-n-Seq
Molecule type: RNA
Matrix: in vitro
Tested at: 1 µM
Notes: whole 134-nt RNA, ends assumed
With: 150 mM KCl
Relative to: input library
Direction: higher = stronger binding
All sequences stand within: GGGAGUUCUACAGUCCGACGAUC … UGGAAUUCUCGGGUGUCAAGG
The log2 enrichment of `UAACUUUAGAGGAAGAUCUGAUGGAUAUGGCAGUGGACGUGGAUUUGGGGAUGGCUAUAAUGGGUAUGGAGGAGGACCUGGAGGUGGCAA` is reported as -0.862.
`UAACUUUAGAGGAGGAUCUGAUGGAUAUGGCAGUGGACGUGGAUUUGGGGAUGGCUAUAAUGGGUAUCGAGGAGGACCUGGAGGUGGCAA` gave a log2 enrichment of -0.268.
`CAAGUCCUGUGCUACACAUCGUAUGUACCGAAUCGGGGAAAGGGGAAAGGGAAAGGAAAGUAUUAUGUUACGCCGUUCGGAUCUGCACUU` has a log2 enrichment of -0.286.
`CACAGACAACACGCACCCACACAGACUCAGAGGGAAGGGGUUGGGAUGGGGACAGGGUGCACAGCAGGGCGGGGUAGGACCCCAGCCCCU` gave a log2 enrichment of -0.00592.
The log2 enrichment of `UCCUGUGCUACACAUCGUAUGUACCGAAUCGGGGUUUUUGGGGAGGGGAAAAAAAGGGGAAAGUAUUAUGUUACGCCGUUCGGAUCUGCA` is reported as 0.574.
For `CACAGACAACACGCACCCACACAGACACAGAGGGAAGGGGUUGGGAUGGGGACAGGGUGCACAGUAGGGCGGGGUAGGACCCCAGCCCCU`, the log2 enrichment was 0.383.
`UGGCCCUGGUGGCAUGCGGGGAGGAAGAGGUGGCCUCAUGGAUCGUGGUGGUCUCGGUGGAAUGUUCAGAGGUGGCCGUGGUGGAGACAG` has a log2 enrichment of 0.658.
`ACCAUGCAGGUGGGCAUCUUUGGGAAGUGGGGCAAGGGGGGGAUAGGGAGGGGGGUAACACUUUGGGAACAUGUGGUCCCAGGUCGUUUC` has a log2 enrichment of 0.752.
With `GUCCUGUGCUACACAUCGUAUGUACCGAAUCGGGUUUUUUUGGGUUUUUUUGGGAGGGAAAGUAUUAUGUUACGCCGUUCGGAUCUGCAC` the log2 enrichment was 0.0925.
`AGUCCUGUGCUACACAUCGUAUGUACCGAAUCGGGAAAGGGUUUGGGAAAAAAAGGGAAAGUAUUAUGUUACGCCGUUCGGAUCUGCACU` has a log2 enrichment of 0.0758.
`ACCAUGCAGGUGGGCAUCUUUGGGAAGUGGGCCAAGGGGGGGAUAGGGAGGGGGGUAACACUUUGGGAACAGGUGGUCCCAGGUCGUUUC` has a log2 enrichment of -0.498.
With `UCAAGUCCUGUGCUACACAUCGUAUGUACCGAAUCGGUUUGGGUUUGGGUUUGGAAAGUAUUAUGUUACGCCGUUCGGAUCUGCACUUCC` the log2 enrichment was -0.224.
For `GCAGGAAGGAAAAACAAAUGGAAAUGCUUCGGAUAGUGGCAGGGGUGGGGGUUGCUAAGGAAAGGGUGGGAUGGGAGUGGGUAAAGAGUU`, the log2 enrichment was 1.24.

Set 2
Target: Histone acetyltransferase KAT6A, winged helix 1, GST fusion (KAT6A, Homo sapiens, UniProt Q92794, residues 1-85)
Method: protein binding microarray
Molecule type: double-stranded DNA, one strand shown
Matrix: in vitro
Tested at: not given
Notes: 8-mer, flanks averaged, mean of 2 arrays, mostly near background
Relative to: not given
Direction: higher = stronger binding
Construct (chain): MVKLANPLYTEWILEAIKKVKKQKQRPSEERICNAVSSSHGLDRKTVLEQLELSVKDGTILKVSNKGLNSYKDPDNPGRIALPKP
`GCGTGTAC` has an E-score of 0.186.
With `AAATTGAG` the E-score was -0.264.
`ATGTTGAA` gave an E-score of -0.00899.
With `CGTATCAG` the E-score was 0.105.
For `ACGTTGAT`, the E-score was -0.148.
For `AAATGCGG`, the E-score was 0.127.
The E-score of `ACAGGGTC` is reported as -0.0579.
`AGCAGCCG` has an E-score of 0.126.
The E-score of `CTTCAGTC` is reported as -0.135.

Set 3
Target: CCNB1, cyclin fold, Cln2 fusion (human)
Method: yeast growth competition, sequencing
Matrix: yeast
Notes: strong parent motif
Relative to: not given
Direction: higher = stronger binding
Starting sequence: INSM1 docking peptide (human); PKAIRKLHFEDEV
`PKAIRKLHFEDRV [E12R]` — result for “normalised enrichment score”: 0.823.
`PKCIRKLHFEDEV [A3C]`: “normalised enrichment score” 4.26.
`PKAIRKHHFEDEV [L7H]`: “normalised enrichment score” -0.102.
For `PKAIMKLHFEDEV [R5M]`, “normalised enrichment score” read 2.28.
`PKAIRKLHFQDEV [E10Q]` — result for “normalised enrichment score”: 1.16.
`PKAIRKLHQEDEV [F9Q]` — result for “normalised enrichment score”: 0.181.
Under “normalised enrichment score”, `PFAIRKLHFEDEV [K2F]` is recorded as 3.37.
Under “normalised enrichment score”, `PKAIRSLHFEDEV [K6S]` is recorded as 0.919.
`PKAIRKLHFEHEV [D11H]` — result for “normalised enrichment score”: 1.17.
`PKAIRKGHFEDEV [L7G]`: “normalised enrichment score” 0.538.
`PKAIRQLHFEDEV [K6Q]` — result for “normalised enrichment score”: 2.46.

Set 4
Molecule: PhoQ, residues 284 288 289 292 302 303 AGHLVA
Method: Sort-seq
Measured: YFP reporter
Matrix: E. coli
Notes: PhoQ-PhoP variant library
With: 10 µM Mg2+
Relative to: high Mg2+ state
Direction: higher = stronger signaling
PhoP, residues 12 14 15 18 19 TQALL (Escherichia coli, UniProt P23836) — fold induction: 18.8.
For PhoP, residues 12 14 15 18 19 QYFSL (Escherichia coli, UniProt P23836): fold induction read 2.56.
PhoP, residues 12 14 15 18 19 NYFRM (Escherichia coli, UniProt P23836) — fold induction: 14.2.
